Results gathered from unrelated publications.
Parts stem from different laboratories: compare values within a part only.

Series 1
Target: Centromere-binding protein 1, full length, N-terminal tag (CBF1, Saccharomyces cerevisiae, UniProt P17106, residues 1-351)
Sequence of UniProt P17106 (whole entry, looked up): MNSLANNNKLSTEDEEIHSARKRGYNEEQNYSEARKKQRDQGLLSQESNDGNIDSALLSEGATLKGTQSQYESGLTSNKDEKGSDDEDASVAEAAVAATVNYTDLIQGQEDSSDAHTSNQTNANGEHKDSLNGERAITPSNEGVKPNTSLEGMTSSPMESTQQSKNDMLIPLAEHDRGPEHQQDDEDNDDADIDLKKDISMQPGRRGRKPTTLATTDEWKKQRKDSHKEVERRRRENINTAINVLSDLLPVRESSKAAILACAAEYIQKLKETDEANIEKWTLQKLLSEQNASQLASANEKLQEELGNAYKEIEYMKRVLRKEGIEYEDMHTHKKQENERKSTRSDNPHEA
Method: protein-binding microarray
Molecule type: double-stranded DNA, one strand shown
Sample: in vitro
Concentration: 0.8 µM
Setting: whole 60-bp probe, no competitor
Reading: higher = stronger binding
Oligonucleotide | fluorescence intensity
GAAAGGTGTAAAGGACATCAGAGAGGAAAATATTAGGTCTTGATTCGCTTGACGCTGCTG | 522 a.u.
GAAACCACCGTGGGTCACCTTTTTCTTGCGCCTTAGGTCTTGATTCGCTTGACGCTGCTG | 487 a.u.
CTAGTTTGCATTTTGCACGTTTCCCTTTCCATGTTCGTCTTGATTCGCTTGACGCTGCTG | 623 a.u.
GAATAAAAGCGTTTTATGGTGATGACTAAGAAATAGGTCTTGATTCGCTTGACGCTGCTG | 703 a.u.
CTAGCTTTCGATTACCATGTGCAATCTGTCTATTTCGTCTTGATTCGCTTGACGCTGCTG | 641 a.u.
GAACAGCTTCCATTACATCTGATGCTATTTCTTTAGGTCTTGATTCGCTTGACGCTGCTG | 516 a.u.
CCTAACTACTATAACCACGCCTCATAGCTTCGTACAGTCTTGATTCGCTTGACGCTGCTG | 547 a.u.
GAAAAAACAACCAAGCACGAGAAAGGGAGAGAGTAGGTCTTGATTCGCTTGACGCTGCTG | 575 a.u.
GAAATAATGTGTGAAAACGTGATGCTTTCTCGATAGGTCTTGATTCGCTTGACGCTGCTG | 1350 a.u.
CTATCTTCATTTAATAACGTGTTAAGAATGACATTCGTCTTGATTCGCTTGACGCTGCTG | 793 a.u.
GAAGGACAACTGTTGACCGTGATCCGAAGGACTTAGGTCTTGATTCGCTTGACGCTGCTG | 557 a.u.
CCTAACTACTATAGAGGTGACATATAGCTTCGTACAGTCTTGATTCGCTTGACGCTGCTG | 525 a.u.
GAATTTAATGAGTGACACGATTTGTTTTGATAATAGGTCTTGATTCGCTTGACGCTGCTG | 546 a.u.
CTAACCTGAACAGATCACGATCATCCTTCAGAATTCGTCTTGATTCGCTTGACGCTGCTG | 603 a.u.
CTAGCAAAGGGGTAGTACGTGGCACCTCCTAAATTCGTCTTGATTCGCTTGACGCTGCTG | 490 a.u.
GAATGCTGAAGTCATCACCAAAATTTTTCATTTTAGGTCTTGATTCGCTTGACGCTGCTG | 528 a.u.
GAAAGAATATAGTGACACCAAACCATAGAACGCTAGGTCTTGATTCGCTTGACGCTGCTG | 518 a.u.
GAAGGCGGAAAAGCTCACGTGTGAAGAAGAAAATAGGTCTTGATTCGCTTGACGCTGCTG | 3320 a.u.
GAAGGCAAATATCATGGTGACACGCTTATAGATTAGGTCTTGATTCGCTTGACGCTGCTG | 594 a.u.
CTATAATGTATGGGTGGTGTGTACACCAAGGTATTCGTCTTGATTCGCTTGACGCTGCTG | 503 a.u.
GAATTGCGCTAGCTTCAGCTGATGTGCCATGTATAGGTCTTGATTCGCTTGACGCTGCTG | 503 a.u.
GAATAGGCTCTAAATTGCGTGCCTGAAATCTGCTAGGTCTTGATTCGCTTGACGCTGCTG | 512 a.u.

Series 2
Target: Transcriptional repressor CTCF (CTCF, Homo sapiens, UniProt P49711, residues 1-727, full length assumed)
Sequence of UniProt P49711 (whole entry, looked up): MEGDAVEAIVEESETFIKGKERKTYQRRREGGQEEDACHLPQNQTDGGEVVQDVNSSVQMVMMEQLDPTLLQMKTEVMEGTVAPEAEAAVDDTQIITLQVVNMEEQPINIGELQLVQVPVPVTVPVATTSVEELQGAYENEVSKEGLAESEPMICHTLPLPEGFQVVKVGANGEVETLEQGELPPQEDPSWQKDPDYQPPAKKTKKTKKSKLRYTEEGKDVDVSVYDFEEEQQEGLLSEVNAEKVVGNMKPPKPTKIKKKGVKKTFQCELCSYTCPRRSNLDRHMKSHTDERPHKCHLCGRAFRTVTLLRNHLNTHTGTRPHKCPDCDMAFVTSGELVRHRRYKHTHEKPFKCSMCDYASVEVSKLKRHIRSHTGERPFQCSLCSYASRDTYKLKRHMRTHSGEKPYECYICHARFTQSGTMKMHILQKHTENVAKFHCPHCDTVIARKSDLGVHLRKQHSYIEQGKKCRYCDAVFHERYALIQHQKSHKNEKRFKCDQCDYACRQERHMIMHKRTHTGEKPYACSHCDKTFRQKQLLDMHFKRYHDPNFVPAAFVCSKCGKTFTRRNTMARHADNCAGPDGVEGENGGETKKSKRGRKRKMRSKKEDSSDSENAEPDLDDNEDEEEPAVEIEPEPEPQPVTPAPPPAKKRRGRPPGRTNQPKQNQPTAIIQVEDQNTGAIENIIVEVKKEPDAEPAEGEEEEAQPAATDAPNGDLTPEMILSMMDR
Method: protein-binding microarray
Molecule type: double-stranded DNA, one strand shown
Sample: in vitro
Concentration: not given
Setting: k-mer, scored over probes, only values ≥0.25
Reading: higher = stronger binding
Oligonucleotide | E-score
AGATGCGC | 0.323
ATATTCAG | 0.258
ACCCCGCC | 0.347
TTAGATAA | 0.256
CTACAACC | 0.269
GCATTATA | 0.315
CGCGACAA | 0.261
TAACGTAA | 0.251
GATGGCGC | 0.31
AATGCAAT | 0.268
GTTATTAA | 0.274
AGTACAAA | 0.271
AATAATAT | 0.363
AGCGCGCA | 0.308
ACCACTAG | 0.389
AACTATAT | 0.327
ACTGGCGC | 0.263
AGAATTTA | 0.287
CAAACATA | 0.285
CTATATTA | 0.349
AAATGAGT | 0.256
TAACATAA | 0.278
TGAATTAA | 0.337
ATGCGCAT | 0.441
TAAACGCA | 0.259

Series 3
Target: Fragile X messenger ribonucleoprotein 1, C-terminal low-complexity region (Fmr1, Mus musculus, UniProt P35922)
Method: RNA Bind-n-Seq
Molecule type: RNA
Sample: in vitro
Concentration: 200 nM
Setting: whole 134-nt RNA, ends assumed
Added: 150 mM KCl
Relative to: input library
Reading: higher = stronger binding
Oligonucleotide | log2 enrichment
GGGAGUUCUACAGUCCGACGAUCCAAGUCCUGUGCUACACAUCGUAUGUACCGAAUCGGAAAAAAAGGUUUGGAAAGGAAAGUAUUAUGUUACGCCGUUCGGAUCUGCACUUCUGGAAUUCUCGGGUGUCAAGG | -1.28
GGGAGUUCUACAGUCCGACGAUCUCCUGUGCUACACAUCGUAUGUACCGAAUCGGGAAAAAGGGGAAAAAGGGAAAAAGGGGAAAGUAUUAUGUUACGCCGUUCGGAUCUGCAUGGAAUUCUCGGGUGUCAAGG | -0.0271
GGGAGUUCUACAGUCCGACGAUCGUCCUGUGCUACACAUCGUAUGUACCGAAUCAAAUUUAAAUUUUUAAACCCCCCCAAAAAAGUAUUAUGUUACGCCGUUCGGAUCUGCACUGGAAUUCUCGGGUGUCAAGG | 0.257
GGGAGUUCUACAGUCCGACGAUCAGUCCUGUGCUACACAUCGUAUGUACCGAAUCAAACCCCCAAACCCCCAAAUUUAAAAAAGUAUUAUGUUACGCCGUUCGGAUCUGCACUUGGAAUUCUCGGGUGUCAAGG | -0.249
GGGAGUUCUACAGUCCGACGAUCUCCUGUGCUACACAUCGUAUGUACCGAAUCGGUUUUUUUGGAAAAAAAGGUUUUUUUGGAAAGUAUUAUGUUACGCCGUUCGGAUCUGCAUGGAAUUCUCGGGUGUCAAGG | -0.858
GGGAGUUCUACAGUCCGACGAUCGGACAAGAAUCCUUCAAGAAACAGGAAAAAACUCCUAAAACACCAAAAGGACCUAGUUCUGUAGAAGACAUUAAAGCAAAAAUGCAAGCAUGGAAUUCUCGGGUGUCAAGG | 0.4
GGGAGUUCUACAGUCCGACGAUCUAACUUUAGAGGAGGAUCUGACGGAUAUGGCAGUGGACGUGGAUUUGGGGAUGGCUAUAAUGGGUAUGGAGGAGGACCUGGAGGUGGCAAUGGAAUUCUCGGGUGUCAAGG | 0.318
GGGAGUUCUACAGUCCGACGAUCACCAUGCAGGUGGGCAUCUUUGGGAAGUGGGGCAAGGGGGGGCUAGGGAGGGGGGUAACACUUUGGGAACAGGUGGUCCCAGGUCGUUUCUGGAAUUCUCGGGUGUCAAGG | 0.834
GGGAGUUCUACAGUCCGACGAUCCUGUGCUACACAUCGUAUGUACCGAAUCGGGUUUUUUUGGGUUUUUUUGGGAAAAAAAGGGAAAGUAUUAUGUUACGCCGUUCGGAUCUGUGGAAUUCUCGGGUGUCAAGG | -1.3
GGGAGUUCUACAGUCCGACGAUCUAUUGAUGCAUUUGACCCUACACUGGCUCCAGCCACAGGAACUCCUGUUGUCGGGGGACUAACCUAUCGAGAAGGCAUGUAUAUUGCUGAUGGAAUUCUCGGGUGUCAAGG | -0.886
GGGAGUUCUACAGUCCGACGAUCUGGGAGGUGGAUUUUGUUUAUAUUUUUAGCUCAUUUCCAGGGGUGGGAAUUUUUUUUUAAUAUGUGUCAUGAAUAAAGUUGUUUUUGAAAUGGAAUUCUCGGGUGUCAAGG | 0.297
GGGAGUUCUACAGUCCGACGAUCCAAGUCCUGUGCUACACAUCGUAUGUACCGAAUCGGAAAGGAAAGGUUUUUUUGGAAAGUAUUAUGUUACGCCGUUCGGAUCUGCACUUCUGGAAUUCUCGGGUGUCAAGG | -0.921
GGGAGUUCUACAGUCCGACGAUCGUCCUGUGCUACACAUCGUAUGUACCGAAUCAAAUUUAAAUUUUUAAAUUUUUUUAAAAAAGUAUUAUGUUACGCCGUUCGGAUCUGCACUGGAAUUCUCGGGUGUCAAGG | -1.31
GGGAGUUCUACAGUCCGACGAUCCAAGUCCUGUGCUACACAUCGUAUGUACCGAAUCGGAGGUUUUUGGAAAAAAAGGAAAGUAUUAUGUUACGCCGUUCGGAUCUGCACUUCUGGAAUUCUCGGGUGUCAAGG | -0.81

Series 4
Target: RNA binding protein fox-1 homolog 2, RRM domain, GST-SBP tag (RBFOX2, Homo sapiens, UniProt O43251-10, residues 100-194)
Method: RNA Bind-n-Seq
Molecule type: RNA
Sample: in vitro
Concentration: 365 nM
Setting: natural RNA segment, single round, ends assumed
Relative to: no-protein control
Reading: higher = stronger binding
Target sequence (chain): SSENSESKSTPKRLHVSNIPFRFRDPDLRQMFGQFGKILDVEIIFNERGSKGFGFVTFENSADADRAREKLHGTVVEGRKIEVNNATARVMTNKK
Oligonucleotide | RBNS enrichment (R)
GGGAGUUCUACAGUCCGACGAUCUGAAUUGUGGCAGAGCUUAGAUCCUGCACCCAGGGGUCUUUUUUUCAAACAGCAUCUUGCUCAGUUCUGUGAACAGAAGGCUUUGUUACUGAAGGAGGUGGAAGAGGAGUUGGAAUUCUCGGGUGCCAA | 0.438
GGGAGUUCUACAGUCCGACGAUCUUUCUUGUUGGCCAUUUCUGUAUUGCUGGCAUCUGUGCUAAGCUUUACAGUGGCAAAAAUAAUGACAUGUAGCAAAGAUUUUCAAACAAAAUAUUUUUUCCUUUUGUAAAUGGAAUUCUCGGGUGCCAA | 0.405
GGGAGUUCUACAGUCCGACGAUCAUGCUAAGUCAAAACGGCCCUUAGUCACGACCUUGUUGUGGCCCCUCCCUUGUCAUCAGUAGUAACCUAUACUCAAGUGCCUGUGUCUUCUCAUCUCACUUAGGAUUGUAUGGAAUUCUCGGGUGCCAA | 0.347
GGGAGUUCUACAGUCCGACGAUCAGUUAUACAAGUUUCUGAAUAUUUUAAAUCUUAACAUCAUAUAAAAGGCAGCAGAGGUGAGAACUCAGAAGAGAAAUACAGCUGGCUAUCUACUACCAGAAGGGCUUCAAUGGAAUUCUCGGGUGCCAA | 0.421
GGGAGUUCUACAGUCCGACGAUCAUGUAUUCAUUUGCAGUCUUUGUAUUUAAAAAAACUUUACUGUUAUGUUUGUAUAAUAGAACAUUAAUCAUUUAUUAUAACUCAGACAAGGUGUAAAUAAAUUCAUAAUUUGGAAUUCUCGGGUGCCAA | 0.55
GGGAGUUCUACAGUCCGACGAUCACUAGAUGUUUUUCUGAAGAUCAAUUAGACAUUUUGAAAAUGAUUUAAAGUGUUUUCCUUAAUGUUCUCUGAAAACAAGUUUCUUUUGUAGUUUUAACCAAAAAAGUGCCUGGAAUUCUCGGGUGCCAA | 0.348
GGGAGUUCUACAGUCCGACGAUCGAAGACACAAAGUAUGGGGGAAGACAGCAAUCAAAACUAACUUUUUGUAGAUAGCCAUUUCAUUUCUUUAAACUGUUUCAACGCCAAUAUGUAUUCUACAAAAGAGAAUGUGGAAUUCUCGGGUGCCAA | 0.618
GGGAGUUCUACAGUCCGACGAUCUUGAGUGGGUGCACAGGAAGCAGCUAGCGGAUAGGAAGGCACUCUGCUCUGUGAUGGCAAGUGAAGACUUGAGAACUUAGGGUGAUGACCACCGAACAGCACAGCUAGUGUGGAAUUCUCGGGUGCCAA | 0.536
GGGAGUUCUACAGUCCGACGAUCCCGGAUGACAGUGACGAGGAGAACUGGGGCACGUGGGGUGCGGCAGCGGGCUAGGGCCCAGGGCAGCUUGCCCGUGCUGCUGUGCAGUUCUUGCCUCCCUCACGGGGCGUUGGAAUUCUCGGGUGCCAA | 0.465
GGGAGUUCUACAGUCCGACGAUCUCCCAGGCCAGCAGCCCCUGAUCAGUCCUAACUUACCUGAAAACACCAGGCCCCAGAGCAGACUCAUCCGGGGUGGCAGGUCCCUAAAGCAAGGAAGGCCUCACACUGUCUGGAAUUCUCGGGUGCCAA | 0.238
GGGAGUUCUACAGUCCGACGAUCAAAGACCUGGAGGACCUUUCCCCUAGGCACCUACACUCCUCCAUUGUCUGUCUAUGUUGUGCCUUAGUGCCUGCACUGCCCCUACCCUUCUGCUGCCUGACCUCUGCAUGUGGAAUUCUCGGGUGCCAA | 6.63
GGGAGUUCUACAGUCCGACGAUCUUGAACCACCAUAGACCUAGUAAGUGAGCCCAGUGUGUCCUCCCAUGUAAGAGCCAGGUGUUCAGUGGCAUGUGCUUAAAAGUCGCCCCCAACUAAGGUCUGUGUCGCCUUGGAAUUCUCGGGUGCCAA | 0.918

Excerpt of the above (series 2):
Oligonucleotide | E-score
AACTATAT | 0.327
ACTGGCGC | 0.263
AGAATTTA | 0.287
CAAACATA | 0.285
CTATATTA | 0.349
AAATGAGT | 0.256
TAACATAA | 0.278
TGAATTAA | 0.337
